Experimental data gathered from unrelated publications.
Lines come from different studies, so protocols differ.
Target: Cytochrome P450 2C9 (CYP2C9, Homo sapiens, UniProt P11712)
UniProt P11712, sequence (whole entry, looked up): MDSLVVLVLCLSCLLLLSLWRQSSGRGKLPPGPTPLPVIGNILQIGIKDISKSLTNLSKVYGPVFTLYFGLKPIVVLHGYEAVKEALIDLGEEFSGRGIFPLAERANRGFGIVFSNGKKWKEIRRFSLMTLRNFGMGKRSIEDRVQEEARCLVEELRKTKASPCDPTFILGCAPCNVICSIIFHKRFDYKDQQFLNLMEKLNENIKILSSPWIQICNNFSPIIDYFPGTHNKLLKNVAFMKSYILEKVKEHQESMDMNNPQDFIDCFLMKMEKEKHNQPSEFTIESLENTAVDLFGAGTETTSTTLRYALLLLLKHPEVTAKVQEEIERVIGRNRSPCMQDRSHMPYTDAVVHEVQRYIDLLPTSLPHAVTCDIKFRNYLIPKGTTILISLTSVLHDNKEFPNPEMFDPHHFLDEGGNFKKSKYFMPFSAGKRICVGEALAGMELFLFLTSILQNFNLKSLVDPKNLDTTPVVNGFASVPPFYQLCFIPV

SMILES = Nc1ccc(S(=O)(=O)Nc2ccnn2-c2ccccc2)cc1; assay = enzyme activity, inhibitor; system = pooled human liver microsomes; setting = concentration not given; quantity = remaining activity; value = 12.6%
SMILES = N#Cc1ccc(C(O)c2ccc(C#N)cc2)cc1; assay = inhibitor; quantity = IC50; value = 134 µM
SMILES = CC(=O)C(O)C(c1ccccc1)c1c(O)c2ccccc2oc1=O (stereo not shown); assay = enzyme activity, inhibitor; setting = pH 7.4; quantity = Ki; value = 0.94 µM
SMILES = c1cc2c(cc1[C@H]1OC[C@H]3[C@@H]1CO[C@@H]3c1ccc3c(c1)OCO3)OCO2; assay = mechanism-based inhibitor; system = human liver microsomes; setting = concentration not given, 60 min; quantity = activity recovery; value = no effect
SMILES = CC[C@@H]1CN2CC[C@@]3(O)C(=Nc4cccc(OC)c43)[C@@H]2C[C@@H]1/C(=C\OC)C(=O)OC; assay = enzyme activity, inhibitor; system = human liver microsomes; setting = together with: diclofenac 4'-hydroxylation; quantity = IC50; value = > 45 µM
SMILES = CCCSc1ccc2nc(NC(=O)OC)[nH]c2c1; assay = inhibitor; system = human liver microsomes; setting = 2 µM, pH 7.4, together with: diclofenac; quantity = inhibition; value = < 0%
SMILES = CC(=O)CC(c1ccc(O)cc1)c1c(O)c2ccccc2oc1=O (stereo not shown); assay = enzyme activity, inhibitor; system = human, liver microsomes; quantity = Ki; value = 17 µM
SMILES = CC(C)(O)c1ccccc1CC[C@@H](SCC1(CC(=O)O)CC1)c1cccc(/C=C/c2ccc3ccc(Cl)cc3n2)c1; assay = inhibitor; system = human liver microsomes; setting = 10 µM, pH 7.4, together with: diclofenac; quantity = inhibition; value = 97.5%
SMILES = CC(=O)CC(c1ccccc1)c1c(O)c2ccc(O)cc2oc1=O (stereo not shown); assay = enzyme activity, inhibitor; quantity = Ki; value = 10 µM
SMILES = CNC(=O)O/N=C/C(C)(C)S(C)(=O)=O; assay = inhibitor; system = human liver microsomes; setting = 2 µM, pH 7.4, together with: diclofenac; quantity = inhibition; value = < 0%
SMILES = CC(C(=O)O)c1ccc(C(=O)c2cccs2)cc1 (racemic); assay = inactivator; setting = together with: (S)-warfarin 7-hydroxylation; scale = baseline: (S)-warfarin over (S)-flurbiprofen and diclofenac; quantity = inactivation efficiency ratio; value = ~3 fold
SMILES = CNC(=O)Oc1cc(C)c(SC)c(C)c1; assay = inhibitor; system = human liver microsomes; setting = 10 µM, pH 7.4, together with: diclofenac; quantity = inhibition; value = 16.3%
SMILES = C=C[C@H]1CN2CCc3c([nH]c4cccc(OC)c34)[C@@H]2C[C@@H]1/C(=C\OC)C(=O)OC; assay = enzyme activity, inhibitor; system = human liver microsomes; setting = together with: diclofenac 4'-hydroxylation; quantity = IC50; value = 15.7 µM

A few entries again:
SMILES = N#Cc1ccc(C(O)c2ccc(C#N)cc2)cc1; assay = inhibitor; quantity = IC50; value = 134 µM
SMILES = CC[C@@H]1CN2CC[C@@]3(O)C(=Nc4cccc(OC)c43)[C@@H]2C[C@@H]1/C(=C\OC)C(=O)OC; assay = enzyme activity, inhibitor; system = human liver microsomes; setting = together with: diclofenac 4'-hydroxylation; quantity = IC50; value = > 45 µM
